# Results pooled from the literature.
# Each numbered part is a random draw from the data of one study; scales do not carry over between parts. “And” joins repeats or separate records; there may be more than shown.
# Chain of UniProt Q16832 (whole entry, looked up): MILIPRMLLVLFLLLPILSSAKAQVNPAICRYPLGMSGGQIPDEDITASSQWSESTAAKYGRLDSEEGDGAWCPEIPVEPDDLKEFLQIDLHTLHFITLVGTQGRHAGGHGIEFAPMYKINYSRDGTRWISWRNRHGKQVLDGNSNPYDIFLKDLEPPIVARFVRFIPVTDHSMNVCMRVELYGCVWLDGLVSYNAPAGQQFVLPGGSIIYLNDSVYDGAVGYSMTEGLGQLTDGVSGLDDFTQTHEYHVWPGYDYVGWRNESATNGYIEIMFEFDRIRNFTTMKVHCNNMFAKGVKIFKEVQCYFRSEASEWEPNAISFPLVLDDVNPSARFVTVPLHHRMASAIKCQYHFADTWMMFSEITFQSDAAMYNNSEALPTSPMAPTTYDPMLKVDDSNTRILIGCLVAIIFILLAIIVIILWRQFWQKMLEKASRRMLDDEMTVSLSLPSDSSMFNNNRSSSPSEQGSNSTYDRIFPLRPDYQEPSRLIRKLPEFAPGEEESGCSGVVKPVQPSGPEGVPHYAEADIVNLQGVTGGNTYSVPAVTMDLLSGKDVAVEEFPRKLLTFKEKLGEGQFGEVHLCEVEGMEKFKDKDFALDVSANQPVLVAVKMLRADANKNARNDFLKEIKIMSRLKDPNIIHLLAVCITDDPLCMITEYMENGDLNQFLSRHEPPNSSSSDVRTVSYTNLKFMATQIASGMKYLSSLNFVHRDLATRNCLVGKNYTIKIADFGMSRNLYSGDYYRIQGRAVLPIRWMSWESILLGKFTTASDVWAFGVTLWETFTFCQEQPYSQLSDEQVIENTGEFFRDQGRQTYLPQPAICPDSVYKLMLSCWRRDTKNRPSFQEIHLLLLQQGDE
# Chain of UniProt P08581 (whole entry, looked up): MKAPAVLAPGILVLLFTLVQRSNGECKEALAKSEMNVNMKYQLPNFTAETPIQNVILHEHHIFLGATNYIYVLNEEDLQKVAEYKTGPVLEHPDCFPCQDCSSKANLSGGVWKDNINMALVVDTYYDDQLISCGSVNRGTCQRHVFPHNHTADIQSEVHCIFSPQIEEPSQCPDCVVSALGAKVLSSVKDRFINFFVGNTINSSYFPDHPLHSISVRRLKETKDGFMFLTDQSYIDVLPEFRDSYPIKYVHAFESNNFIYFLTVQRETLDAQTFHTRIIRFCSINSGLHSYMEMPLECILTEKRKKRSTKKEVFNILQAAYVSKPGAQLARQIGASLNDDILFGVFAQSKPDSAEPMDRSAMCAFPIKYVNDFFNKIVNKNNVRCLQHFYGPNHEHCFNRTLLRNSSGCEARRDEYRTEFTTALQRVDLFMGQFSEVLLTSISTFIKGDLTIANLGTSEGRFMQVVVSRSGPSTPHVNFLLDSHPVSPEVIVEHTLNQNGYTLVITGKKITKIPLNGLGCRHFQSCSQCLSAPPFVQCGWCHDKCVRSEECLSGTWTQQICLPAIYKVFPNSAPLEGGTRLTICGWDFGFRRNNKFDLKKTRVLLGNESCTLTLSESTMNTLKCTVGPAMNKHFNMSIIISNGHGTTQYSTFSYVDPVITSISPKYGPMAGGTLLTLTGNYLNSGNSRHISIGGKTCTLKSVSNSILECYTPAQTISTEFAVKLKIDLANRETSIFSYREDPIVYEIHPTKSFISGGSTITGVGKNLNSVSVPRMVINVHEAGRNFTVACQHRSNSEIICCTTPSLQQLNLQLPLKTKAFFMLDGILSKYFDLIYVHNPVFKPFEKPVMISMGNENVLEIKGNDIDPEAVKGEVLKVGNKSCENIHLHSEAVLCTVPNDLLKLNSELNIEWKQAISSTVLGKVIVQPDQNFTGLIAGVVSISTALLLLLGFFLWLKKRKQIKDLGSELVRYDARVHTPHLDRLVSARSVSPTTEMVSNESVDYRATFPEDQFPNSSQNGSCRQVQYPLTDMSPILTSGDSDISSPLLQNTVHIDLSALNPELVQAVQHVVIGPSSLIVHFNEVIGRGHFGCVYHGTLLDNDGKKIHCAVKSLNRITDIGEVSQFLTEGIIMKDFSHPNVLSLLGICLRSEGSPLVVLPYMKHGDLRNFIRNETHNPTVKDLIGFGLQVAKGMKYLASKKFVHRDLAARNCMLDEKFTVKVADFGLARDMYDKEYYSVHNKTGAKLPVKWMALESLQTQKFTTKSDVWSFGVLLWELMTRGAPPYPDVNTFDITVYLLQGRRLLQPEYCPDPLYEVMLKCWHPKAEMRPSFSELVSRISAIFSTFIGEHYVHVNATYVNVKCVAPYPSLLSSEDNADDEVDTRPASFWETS

# Sample 1 — cell line: mouse MPNST tumor cells; technique: high-content nuclear imaging; measured: cell number; concentration: 10 µM; time: 12 h; setting: mean of 2 replicates; relative to: plate mean; reading: higher = more cells
Structure (SMILES),nuclei count
NNCCc1ccccc1,-0.254 z-score
CC(C(=O)O)c1ccc2c(c1)[nH]c1ccc(Cl)cc12 (stereo not drawn),0.313 z-score
CCCCC1(COC(=O)CCC(=O)O)C(=O)N(c2ccccc2)N(c2ccccc2)C1=O,0.363 z-score
CCCCc1nn(-c2ccccc2C(F)(F)F)c(=O)n1Cc1ccc(-c2ccccc2S(=O)(=O)NC(=O)c2sccc2C)cc1,0.557 z-score
COc1cc(OC)cc(-c2noc(N3CCN(C)C4(CCN(c5ccnc(C)c5)CC4)C3)n2)c1,-4.24 z-score and -4.58 z-score
CCCCC[C@H](O)/C=C/[C@H]1[C@H](O)CC(=O)[C@@H]1CCCCCCC(=O)O,-1.13 z-score
OC(CN1CCNCC1)Cn1c2ccc(Br)cc2c2cc(Br)ccc21 (stereo not drawn),-5.87 z-score
C#C[C@]1(O)CC[C@H]2[C@@H]3CCC4=CC(=O)CC[C@@H]4[C@H]3CC[C@@]21C,0.19 z-score

# Sample 2 — read-out: enzyme activity; mode: inhibitor; concentration: 0.5 µM; relative to: control
# SMILES: CC#CC(=O)Nc1cc2c(Nc3ccc(F)c(Cl)c3)ncnc2cn1
target,remaining activity [%]
"Ribosomal protein S6 kinase alpha-4 (RPS6KA4, Homo sapiens, UniProt O75676)",100
"Tyrosine-protein kinase TXK (TXK, Homo sapiens, UniProt P42681)",1.66
"Serine/threonine-protein kinase PAK 3 (PAK3, Homo sapiens, UniProt O75914)",99
"Discoidin domain-containing receptor 2 (DDR2, Homo sapiens, UniProt Q16832)",108
"Cyclin-dependent kinase 1, with cyclin A (CDK1, Homo sapiens, UniProt P06493)",96.5
"Serine/threonine-protein kinase DCLK2 (DCLK2, Homo sapiens, UniProt Q8N568)",102
"Dual specificity protein kinase CLK4 (CLK4, Homo sapiens, UniProt Q9HAZ1)",90.4
"Hepatocyte growth factor receptor (MET, Homo sapiens, UniProt P08581)",96.3
"Misshapen-like kinase 1 (MINK1, Homo sapiens, UniProt Q8N4C8)",91.9
"Dual specificity protein kinase CLK3 (CLK3, Homo sapiens, UniProt P49761)",47.1
"Vascular endothelial growth factor receptor 2 (KDR, Homo sapiens, UniProt P35968)",98.2
"Calcium/calmodulin-dependent protein kinase type IV (CAMK4, Homo sapiens, UniProt Q16566)",97.4
"Serine/threonine-protein kinase Nek3 (NEK3, Homo sapiens, UniProt P51956)",76.2
"MAP/microtubule affinity-regulating kinase 4 (MARK4, Homo sapiens, UniProt Q96L34)",101
"Serine/threonine-protein kinase MRCK beta (CDC42BPB, Homo sapiens, UniProt Q9Y5S2)",96.4
"G protein-coupled receptor kinase 4 (GRK4, Homo sapiens, UniProt P32298)",104
"Cyclin-dependent kinase 9, with cyclin K (CDK9, Homo sapiens, UniProt P50750)",98.4
"cGMP-dependent protein kinase 2 (PRKG2, Homo sapiens, UniProt Q13237)",105
"Dual specificity mitogen-activated protein kinase kinase 1 (MAP2K1, Homo sapiens, UniProt Q02750)",95.3
"Mitogen-activated protein kinase 14 (MAPK14, Homo sapiens, UniProt Q16539)",101
"Serine/threonine-protein kinase MARK2 (MARK2, Homo sapiens, UniProt Q7KZI7)",105
"Serine/threonine-protein kinase PLK3 (PLK3, Homo sapiens, UniProt Q9H4B4)",100
"Rho-associated protein kinase 1 (ROCK1, Homo sapiens, UniProt Q13464)",96.2
"Mitogen-activated protein kinase 11 (MAPK11, Homo sapiens, UniProt Q15759)",96.2
"Calcium/calmodulin-dependent protein kinase type 1B (PNCK, Homo sapiens, UniProt Q6P2M8)",99.4

# Sample 3 — read-out: ATPase activity; technique: ADP-Glo; relative to: DMSO
# SMILES: CO[C@@H]1[C@@H](OC(N)=O)[C@@H](O)[C@H](Oc2ccc3c(O)c(NC(=O)c4ccc(O)c(CC=C(C)C)c4)c(=O)oc3c2C)OC1(C)C
# SMARCAL1: SWI/SNF-related matrix-associated actin-dependent regulator of chromatin subfamily A-like protein 1 (SMARCAL1, Homo sapiens, UniProt Q9NZC9)
# Chain of UniProt Q9NZC9 (whole entry, looked up): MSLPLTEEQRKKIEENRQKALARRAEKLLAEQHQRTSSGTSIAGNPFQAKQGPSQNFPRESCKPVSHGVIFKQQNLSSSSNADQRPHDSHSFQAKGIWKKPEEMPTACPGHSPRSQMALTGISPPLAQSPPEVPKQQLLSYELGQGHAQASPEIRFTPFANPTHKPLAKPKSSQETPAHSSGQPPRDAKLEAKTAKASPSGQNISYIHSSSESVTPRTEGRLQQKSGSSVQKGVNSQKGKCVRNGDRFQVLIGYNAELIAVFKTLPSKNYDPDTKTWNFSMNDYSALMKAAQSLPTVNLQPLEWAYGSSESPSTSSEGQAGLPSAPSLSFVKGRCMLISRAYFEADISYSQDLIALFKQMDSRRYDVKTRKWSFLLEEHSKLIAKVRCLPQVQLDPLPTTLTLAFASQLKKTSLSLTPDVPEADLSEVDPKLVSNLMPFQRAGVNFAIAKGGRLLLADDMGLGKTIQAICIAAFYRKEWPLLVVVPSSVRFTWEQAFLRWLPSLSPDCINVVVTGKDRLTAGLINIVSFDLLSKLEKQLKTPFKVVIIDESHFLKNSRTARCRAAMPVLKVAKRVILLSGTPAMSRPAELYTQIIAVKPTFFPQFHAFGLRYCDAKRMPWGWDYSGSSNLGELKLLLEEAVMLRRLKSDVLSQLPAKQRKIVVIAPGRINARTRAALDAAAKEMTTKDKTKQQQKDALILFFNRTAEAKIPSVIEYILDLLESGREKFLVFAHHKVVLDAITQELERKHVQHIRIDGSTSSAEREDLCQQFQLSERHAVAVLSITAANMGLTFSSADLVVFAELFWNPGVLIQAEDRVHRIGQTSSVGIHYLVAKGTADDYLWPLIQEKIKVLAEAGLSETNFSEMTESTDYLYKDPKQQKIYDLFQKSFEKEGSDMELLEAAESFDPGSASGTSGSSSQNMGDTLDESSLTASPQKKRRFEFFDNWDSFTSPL
# BLM: RecQ-like DNA helicase BLM (BLM, Homo sapiens, UniProt P54132)
# Chain of UniProt P54132 (whole entry, looked up): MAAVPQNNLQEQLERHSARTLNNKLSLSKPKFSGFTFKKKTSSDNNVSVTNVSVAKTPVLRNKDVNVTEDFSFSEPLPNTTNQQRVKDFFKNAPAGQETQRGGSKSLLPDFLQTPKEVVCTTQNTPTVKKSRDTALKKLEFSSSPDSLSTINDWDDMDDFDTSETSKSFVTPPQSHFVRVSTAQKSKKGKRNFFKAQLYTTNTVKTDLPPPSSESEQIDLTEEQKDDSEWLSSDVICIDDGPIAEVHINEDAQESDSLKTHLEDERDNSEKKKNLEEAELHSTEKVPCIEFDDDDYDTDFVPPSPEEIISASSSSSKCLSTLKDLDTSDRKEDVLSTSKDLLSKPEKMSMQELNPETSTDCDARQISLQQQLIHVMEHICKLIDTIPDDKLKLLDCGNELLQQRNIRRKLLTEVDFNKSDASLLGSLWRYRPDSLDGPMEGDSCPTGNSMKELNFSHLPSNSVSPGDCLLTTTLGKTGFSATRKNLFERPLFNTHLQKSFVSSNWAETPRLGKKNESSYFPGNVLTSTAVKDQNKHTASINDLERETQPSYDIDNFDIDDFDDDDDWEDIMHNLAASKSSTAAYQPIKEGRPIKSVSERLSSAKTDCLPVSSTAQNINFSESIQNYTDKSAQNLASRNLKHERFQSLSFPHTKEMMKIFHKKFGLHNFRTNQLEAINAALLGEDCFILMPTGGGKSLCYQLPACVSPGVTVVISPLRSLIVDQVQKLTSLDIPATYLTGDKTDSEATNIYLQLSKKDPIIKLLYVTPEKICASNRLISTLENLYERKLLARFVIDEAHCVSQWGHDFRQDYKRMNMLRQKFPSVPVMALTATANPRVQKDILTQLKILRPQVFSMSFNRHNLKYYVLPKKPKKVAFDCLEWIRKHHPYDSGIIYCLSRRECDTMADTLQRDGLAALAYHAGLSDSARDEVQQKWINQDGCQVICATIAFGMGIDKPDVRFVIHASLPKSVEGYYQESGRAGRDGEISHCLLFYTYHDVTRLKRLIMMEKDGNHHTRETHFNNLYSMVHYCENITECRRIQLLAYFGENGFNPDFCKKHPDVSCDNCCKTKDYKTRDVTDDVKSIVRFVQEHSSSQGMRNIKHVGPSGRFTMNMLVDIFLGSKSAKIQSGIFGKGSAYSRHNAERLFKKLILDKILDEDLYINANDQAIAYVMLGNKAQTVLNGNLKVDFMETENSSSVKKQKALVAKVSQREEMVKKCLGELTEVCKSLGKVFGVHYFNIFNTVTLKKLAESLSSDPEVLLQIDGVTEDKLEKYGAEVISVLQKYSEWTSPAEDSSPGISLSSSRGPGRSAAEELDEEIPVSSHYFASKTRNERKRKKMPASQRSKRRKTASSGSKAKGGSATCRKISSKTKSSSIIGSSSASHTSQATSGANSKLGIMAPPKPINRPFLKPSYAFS
# TRIP13: Pachytene checkpoint protein 2 homolog (TRIP13, Homo sapiens, UniProt Q15645)
# Chain of UniProt Q15645 (whole entry, looked up): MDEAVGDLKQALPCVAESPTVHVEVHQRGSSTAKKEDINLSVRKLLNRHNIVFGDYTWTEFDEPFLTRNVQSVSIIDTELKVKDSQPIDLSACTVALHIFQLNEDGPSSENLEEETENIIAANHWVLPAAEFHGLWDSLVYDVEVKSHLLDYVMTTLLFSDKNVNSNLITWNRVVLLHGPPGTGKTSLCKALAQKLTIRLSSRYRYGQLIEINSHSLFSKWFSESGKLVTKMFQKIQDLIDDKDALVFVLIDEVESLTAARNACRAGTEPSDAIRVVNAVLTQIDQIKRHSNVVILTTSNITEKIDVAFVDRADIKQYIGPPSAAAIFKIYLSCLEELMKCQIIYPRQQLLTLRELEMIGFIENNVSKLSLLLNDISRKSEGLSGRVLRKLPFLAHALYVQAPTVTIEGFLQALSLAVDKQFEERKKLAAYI
target,concentration,remaining activity
SMARCAL1,50 µM,95% and 96.1% and 98.4% and 107% and 101% and 94.7%
SMARCAL1,25 µM,99.8% and 104% and 101% and 97.2% and 99.6%
BLM,50 µM,88.4% and 104% and 88.3% and 84.8% and 93.1% and 94.9%
BLM,25 µM,93.3% and 96.7% and 103% and 97.3% and 102%
"Heat shock protein HSP 90-alpha (HSP90AA1, Homo sapiens, UniProt P07900)",50 µM,99.4% and 83.2% and 103% and 87.1% and 101%
TRIP13,25 µM,95.8% and 95.1% and 101% and 72.5% and 89.9% and 104%
TRIP13,100 µM,109% and 104% and 106% and 113% and 108%

# Sample 4 — technique: competition with immobilised ligand; concentration: 1 µM
# SMILES: NS(=O)(=O)c1cc(NC(=O)Cc2ccccc2)ccc1Oc1cccc(Cl)c1
target,read-out,remaining binding
"Serine/threonine-protein kinase DCLK1 (DCLK1, Homo sapiens, UniProt O15075)",cell-free assay,86%
"Serine/threonine-protein kinase tousled-like 2 (TLK2, Homo sapiens, UniProt Q86UE8)",cell-free assay,100%
"Serine/threonine-protein kinase ULK1 (ULK1, Homo sapiens, UniProt O75385)",cell-free assay,88%
"Phosphatidylinositol 4,5-bisphosphate 3-kinase catalytic subunit alpha isoform (PIK3CA, Homo sapiens, UniProt P42336, I800L)",cell-free assay,82%
"Serine/threonine-protein kinase 32B (STK32B, Homo sapiens, UniProt Q9NY57)",cell-free assay,100%
"Transient receptor potential cation channel subfamily M member 6 (TRPM6, Homo sapiens, UniProt Q9BX84)",cell-free assay,84%
"Mast/stem cell growth factor receptor Kit (KIT, Homo sapiens, UniProt P10721, V559D)",cell-free assay,81%
"Receptor-type tyrosine-protein kinase FLT3 (FLT3, Homo sapiens, UniProt P36888, F691L/ITD)",cell-free assay,97%
"Mitogen-activated protein kinase 1 (MAPK1, Homo sapiens, UniProt P28482)",cell-free assay,71%
"Fibroblast growth factor receptor 3 (FGFR3, Homo sapiens, UniProt P22607)",cell-free assay,86%
"Activin receptor type-1-like (ACVRL1, Homo sapiens, UniProt P37023)",binding,99%

# For quick reference, copied from above (sample 2):
target,remaining activity [%]
"Dual specificity protein kinase CLK3 (CLK3, Homo sapiens, UniProt P49761)",47.1
"Vascular endothelial growth factor receptor 2 (KDR, Homo sapiens, UniProt P35968)",98.2
"Calcium/calmodulin-dependent protein kinase type IV (CAMK4, Homo sapiens, UniProt Q16566)",97.4
"Serine/threonine-protein kinase Nek3 (NEK3, Homo sapiens, UniProt P51956)",76.2
"MAP/microtubule affinity-regulating kinase 4 (MARK4, Homo sapiens, UniProt Q96L34)",101
"Serine/threonine-protein kinase MRCK beta (CDC42BPB, Homo sapiens, UniProt Q9Y5S2)",96.4
"G protein-coupled receptor kinase 4 (GRK4, Homo sapiens, UniProt P32298)",104
"Cyclin-dependent kinase 9, with cyclin K (CDK9, Homo sapiens, UniProt P50750)",98.4
